Experimental data collected from several papers.
Protocols differ between the studies behind these lines. Changes are numbered by the printed parent chain. ± gives the spread as reported.
D2 helicase 1-928: D2 helicase 1-928 (Escherichia phage T5, UniProt Q6QGH9)
UniProt Q6QGH9, sequence (whole entry, looked up): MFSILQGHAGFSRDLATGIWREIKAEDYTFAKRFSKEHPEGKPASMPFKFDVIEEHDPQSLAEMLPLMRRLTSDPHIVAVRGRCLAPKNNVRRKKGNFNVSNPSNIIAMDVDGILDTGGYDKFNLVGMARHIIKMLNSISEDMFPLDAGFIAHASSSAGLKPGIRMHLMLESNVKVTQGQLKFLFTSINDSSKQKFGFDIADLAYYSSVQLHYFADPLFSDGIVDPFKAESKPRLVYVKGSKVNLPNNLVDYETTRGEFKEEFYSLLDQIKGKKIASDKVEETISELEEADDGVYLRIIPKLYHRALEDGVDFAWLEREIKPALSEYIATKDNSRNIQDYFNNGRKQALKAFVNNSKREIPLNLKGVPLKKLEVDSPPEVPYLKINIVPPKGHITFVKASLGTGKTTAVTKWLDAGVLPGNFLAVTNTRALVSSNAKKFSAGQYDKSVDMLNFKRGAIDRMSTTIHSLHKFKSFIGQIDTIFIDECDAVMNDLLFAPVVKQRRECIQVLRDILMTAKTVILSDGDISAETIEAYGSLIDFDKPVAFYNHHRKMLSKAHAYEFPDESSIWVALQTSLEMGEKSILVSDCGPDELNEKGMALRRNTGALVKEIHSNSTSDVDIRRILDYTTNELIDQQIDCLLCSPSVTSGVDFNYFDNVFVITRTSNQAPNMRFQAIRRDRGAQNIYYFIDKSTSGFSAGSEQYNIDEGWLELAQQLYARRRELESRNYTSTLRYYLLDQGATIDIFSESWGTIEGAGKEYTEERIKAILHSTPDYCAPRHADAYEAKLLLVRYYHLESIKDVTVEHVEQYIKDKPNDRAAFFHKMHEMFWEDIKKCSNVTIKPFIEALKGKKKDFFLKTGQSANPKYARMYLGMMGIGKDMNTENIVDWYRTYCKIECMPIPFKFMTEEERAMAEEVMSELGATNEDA
P1: Cdh8 EC1-EC3 (Mus musculus); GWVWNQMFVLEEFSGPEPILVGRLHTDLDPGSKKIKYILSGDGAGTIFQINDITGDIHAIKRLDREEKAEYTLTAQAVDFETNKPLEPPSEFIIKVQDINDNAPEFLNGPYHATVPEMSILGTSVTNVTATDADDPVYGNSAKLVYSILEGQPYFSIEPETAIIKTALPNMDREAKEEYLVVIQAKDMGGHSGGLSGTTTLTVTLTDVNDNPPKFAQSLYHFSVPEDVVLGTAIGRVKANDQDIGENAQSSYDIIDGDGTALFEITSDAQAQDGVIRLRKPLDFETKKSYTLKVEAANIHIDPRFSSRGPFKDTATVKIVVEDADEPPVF; partner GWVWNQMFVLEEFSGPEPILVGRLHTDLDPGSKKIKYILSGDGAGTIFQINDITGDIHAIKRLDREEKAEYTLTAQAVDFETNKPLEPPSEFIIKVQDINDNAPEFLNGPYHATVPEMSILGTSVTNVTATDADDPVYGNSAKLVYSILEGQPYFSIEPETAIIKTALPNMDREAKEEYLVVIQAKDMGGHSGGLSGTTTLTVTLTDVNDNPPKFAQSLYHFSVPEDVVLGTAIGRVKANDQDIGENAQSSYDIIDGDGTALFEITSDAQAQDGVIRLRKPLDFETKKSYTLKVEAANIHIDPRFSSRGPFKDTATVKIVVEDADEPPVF
P2: ABI1; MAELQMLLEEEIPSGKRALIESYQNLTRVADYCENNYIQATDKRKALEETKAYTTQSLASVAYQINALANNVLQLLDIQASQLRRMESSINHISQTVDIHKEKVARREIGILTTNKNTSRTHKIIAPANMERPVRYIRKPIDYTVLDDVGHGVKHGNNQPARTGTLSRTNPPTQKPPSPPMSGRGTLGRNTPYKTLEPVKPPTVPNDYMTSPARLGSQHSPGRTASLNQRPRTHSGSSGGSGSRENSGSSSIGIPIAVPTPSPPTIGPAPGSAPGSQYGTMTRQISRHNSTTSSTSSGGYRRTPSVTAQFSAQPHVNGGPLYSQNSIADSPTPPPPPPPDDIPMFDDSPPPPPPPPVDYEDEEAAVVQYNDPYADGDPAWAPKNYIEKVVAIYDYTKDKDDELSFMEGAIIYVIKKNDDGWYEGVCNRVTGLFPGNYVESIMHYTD
UniProt Q96P16, sequence (2-137, looked up): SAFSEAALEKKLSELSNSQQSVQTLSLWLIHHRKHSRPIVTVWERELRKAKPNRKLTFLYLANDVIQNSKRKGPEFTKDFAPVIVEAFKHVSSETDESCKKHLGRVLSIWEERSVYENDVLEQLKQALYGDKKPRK
UniProt O51418, sequence (whole entry, looked up): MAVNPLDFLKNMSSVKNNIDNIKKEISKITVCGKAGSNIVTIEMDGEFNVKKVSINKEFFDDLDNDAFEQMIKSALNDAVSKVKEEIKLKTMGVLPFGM

`TTGTAATGAGTAGTGCATTTGCAATGGAGAGATTTTGGGGAGTTGTTTAAAATTACATTTGCGTTTTGTTAAAATGTAACAGCTGAATGTAACAAAATTATATATTTAAATCTTTGAAATATTGC (dsDNA)`: binding “binds” (ebfC (Borreliella burgdorferi, UniProt O51418); EMSA; double-stranded DNA, one strand shown).
For `TTCGAAACGTGCGCGCCCATCGAATTCGAGCTCGGTACCC (dsDNA)`, binding read “no binding” (D2 helicase 1-928; EMSA; double-stranded DNA, one strand shown; 0.1 nM, without ATP/Mg2+).
Under binding, `TTCCTCATGCTTTAGCTAGAATCCCCTAGCTTTAGCTATGGGGAGTATGTCAACAAATTTGCCTAATGAC (ssDNA; hairpin)` is recorded as “binds” (tnpA Y127F (Helicobacter pylori, UniProt Q933Z0); phenanthroline-copper footprinting; single-stranded DNA).
The Kd of `TATTTAGTTAGATATCTAACTAAATA (dsDNA (Staphylococcus aureus); blunt, self-complementary)` is reported as 61.4 µM (MarR family regulatory protein full length assumed Q18P (Staphylococcus aureus, UniProt Q5Y812); ITC; double-stranded DNA, one strand shown).
`RNA polymerase II CTD 19-residue peptide, phosphoserine S7 (Homo sapiens) (sequence not shown)` gave a Kd of 82.8 µM (RPRD2 CID, to residue 161 (Homo sapiens, UniProt Q5VT52); ITC; read off a plot).
`AGAAATCGTTCTTAAGTCCTATGACA (dsDNA)` has a Kd of 3.63 ± 0.55 µM (LiaR D50E/D191N (Enterococcus faecalis, UniProt R3G073); MST; double-stranded DNA, one strand shown).
`TTTTTTTTTTTTTTT (ssDNA)` gave a Kd of 18.4 ± 0.574 µM (DNA processing chain A (DprA) 5-217 (Helicobacter pylori, UniProt O25100); MST; single-stranded DNA).
`P1 W4A` has an SPR response of 2 RU (cadherin-8 adhesive fragment (Mus musculus); SPR; read off a plot, added: Ca2+; higher = more binding).
`P2 K416Q` has a relative binding of 1.9 (WASL (Homo sapiens); co-IP; read off a plot; relative to: unchanged protein, higher = more binding).
`CATTTAGGGCTAAAGTCCTATGGTAACCTGA (dsDNA)` has a Kd of 0.37 ± 0.02 µM (LiaR D191N (Enterococcus faecalis, UniProt R3G073); MST; double-stranded DNA, one strand shown).
`SPKYSPTSPKYSPTSPKYS (RNA polymerase II CTD (Homo sapiens); phosphoserine S2)` has a Kd of 1 µM (RPRD1A CID, residues 2-137 (Homo sapiens, UniProt Q96P16); ITC; peptide; read off a plot).
`CGAATTCGAGCTCGGTACCC (dsDNA)` — result for binding: “no binding” (D2 helicase 1-928; EMSA; double-stranded DNA, one strand shown; 0.1 nM, without ATP/Mg2+).

For quick reference, copied from above:
For `TTCGAAACGTGCGCGCCCATCGAATTCGAGCTCGGTACCC (dsDNA)`, binding read “no binding” (D2 helicase 1-928; EMSA; double-stranded DNA, one strand shown; 0.1 nM, without ATP/Mg2+).
Under binding, `TTCCTCATGCTTTAGCTAGAATCCCCTAGCTTTAGCTATGGGGAGTATGTCAACAAATTTGCCTAATGAC (ssDNA; hairpin)` is recorded as “binds” (tnpA Y127F (Helicobacter pylori, UniProt Q933Z0); phenanthroline-copper footprinting; single-stranded DNA).
